Experimental data pooled from the literature.
Lines come from different studies, so protocols differ. ± marks the error that the study gave. The star is where a group is joined.
CSK: Tyrosine-protein kinase CSK (CSK, Homo sapiens, UniProt P41240)
Sequence of UniProt P41240 (whole entry, looked up): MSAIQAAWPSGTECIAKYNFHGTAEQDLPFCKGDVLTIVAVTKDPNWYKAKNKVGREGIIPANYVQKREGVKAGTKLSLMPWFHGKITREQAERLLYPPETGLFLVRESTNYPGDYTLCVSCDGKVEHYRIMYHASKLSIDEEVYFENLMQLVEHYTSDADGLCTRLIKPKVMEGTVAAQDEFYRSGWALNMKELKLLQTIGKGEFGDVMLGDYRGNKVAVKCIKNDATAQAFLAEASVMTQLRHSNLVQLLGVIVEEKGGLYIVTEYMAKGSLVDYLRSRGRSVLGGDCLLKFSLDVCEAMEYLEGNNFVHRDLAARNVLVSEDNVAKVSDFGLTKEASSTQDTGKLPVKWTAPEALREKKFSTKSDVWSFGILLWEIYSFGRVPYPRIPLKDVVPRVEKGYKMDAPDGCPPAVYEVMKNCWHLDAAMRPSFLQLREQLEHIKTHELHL
B1: UGT1A9 (Homo sapiens, UniProt O60656); chain GKLLVVPMDGSHWFTMRSVVEKLILRGHEVVVVMPEVSWQLGRSLNCTVKTYSTSYTLEDLDREFKAFAHAQWKAQVRSIYSLLMGSYNDIFDLFFSNCRSLFKDKKLVEYLKESSFDAVFLDPFDNCGLIVAKYFSLPSVVFARGILCHYLEEGAQCPAPLSYVPRILLGFSDAMTFKERVRNHIMHLEEHLLCHRFFKNALEIASEILQTPVTEYDLYSHTSIWLLRTDFVLDYPKPVMPNMIFIGGINCHQGKPLPMEFEAYINASGEHGIVVFSLGSMVSEIPEKKAMAIADALGKIPQTVLWRYTGTRPSNLANNTILVKWLPQNDLLGHPMTRAFITHAGSHGVYESICNGVPMVMMPLFGDQMDNAKRMETKGAGVTLNVLEMTSEDLENALKAVINDKSYKENIMRLSSLHKDRPVEPLDLAVFWVEFVMRHKGAPHLRPAAHDLTWYQYHSLDVIGFLLAVVLTVAFITFKCCAYGYRKCLGKKGRVKKAHKSKTH
Sequence of UniProt O60762 (whole entry, unmodified, looked up): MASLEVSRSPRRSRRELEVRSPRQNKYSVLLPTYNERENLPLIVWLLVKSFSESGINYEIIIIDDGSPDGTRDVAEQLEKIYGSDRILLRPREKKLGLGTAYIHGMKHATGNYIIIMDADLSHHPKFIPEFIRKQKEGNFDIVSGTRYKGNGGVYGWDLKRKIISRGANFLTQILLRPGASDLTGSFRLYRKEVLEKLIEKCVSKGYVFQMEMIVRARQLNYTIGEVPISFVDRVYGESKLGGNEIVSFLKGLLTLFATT
Sequence of UniProt O60704 (whole entry, looked up): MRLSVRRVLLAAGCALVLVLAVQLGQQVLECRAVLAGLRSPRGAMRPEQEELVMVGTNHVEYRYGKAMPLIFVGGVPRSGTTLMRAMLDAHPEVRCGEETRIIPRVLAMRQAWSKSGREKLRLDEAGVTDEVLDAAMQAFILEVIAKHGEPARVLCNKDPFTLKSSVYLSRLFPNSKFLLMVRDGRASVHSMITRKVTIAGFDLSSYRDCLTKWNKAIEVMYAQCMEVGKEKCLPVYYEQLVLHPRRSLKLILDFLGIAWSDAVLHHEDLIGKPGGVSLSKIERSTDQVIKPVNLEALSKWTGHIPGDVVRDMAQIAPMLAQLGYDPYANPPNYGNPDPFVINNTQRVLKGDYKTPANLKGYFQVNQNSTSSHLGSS
Sequence of UniProt P52026 (whole entry, looked up): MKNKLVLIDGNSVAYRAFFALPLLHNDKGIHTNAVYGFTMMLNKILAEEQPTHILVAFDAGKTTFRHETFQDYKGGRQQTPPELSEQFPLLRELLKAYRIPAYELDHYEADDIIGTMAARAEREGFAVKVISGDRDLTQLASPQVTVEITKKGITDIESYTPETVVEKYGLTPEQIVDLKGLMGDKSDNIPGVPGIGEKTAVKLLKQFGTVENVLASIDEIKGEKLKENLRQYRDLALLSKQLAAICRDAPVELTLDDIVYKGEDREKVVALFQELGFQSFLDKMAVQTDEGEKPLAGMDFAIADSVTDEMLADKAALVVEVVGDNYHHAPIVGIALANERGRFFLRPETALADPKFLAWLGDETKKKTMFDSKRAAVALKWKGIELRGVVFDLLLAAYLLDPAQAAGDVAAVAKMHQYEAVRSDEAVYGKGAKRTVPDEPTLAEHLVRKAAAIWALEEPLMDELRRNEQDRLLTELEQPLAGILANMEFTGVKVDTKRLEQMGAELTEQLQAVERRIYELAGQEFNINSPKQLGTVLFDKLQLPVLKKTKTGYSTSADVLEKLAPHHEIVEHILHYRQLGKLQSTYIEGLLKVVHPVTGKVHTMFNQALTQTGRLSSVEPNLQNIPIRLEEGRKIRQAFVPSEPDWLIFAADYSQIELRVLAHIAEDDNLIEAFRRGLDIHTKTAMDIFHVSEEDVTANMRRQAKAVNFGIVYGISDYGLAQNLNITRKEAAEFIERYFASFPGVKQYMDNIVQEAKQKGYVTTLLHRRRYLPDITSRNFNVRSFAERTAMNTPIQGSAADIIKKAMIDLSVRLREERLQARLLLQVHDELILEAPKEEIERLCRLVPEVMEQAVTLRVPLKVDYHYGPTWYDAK
Sequence of UniProt O96013 (whole entry, looked up): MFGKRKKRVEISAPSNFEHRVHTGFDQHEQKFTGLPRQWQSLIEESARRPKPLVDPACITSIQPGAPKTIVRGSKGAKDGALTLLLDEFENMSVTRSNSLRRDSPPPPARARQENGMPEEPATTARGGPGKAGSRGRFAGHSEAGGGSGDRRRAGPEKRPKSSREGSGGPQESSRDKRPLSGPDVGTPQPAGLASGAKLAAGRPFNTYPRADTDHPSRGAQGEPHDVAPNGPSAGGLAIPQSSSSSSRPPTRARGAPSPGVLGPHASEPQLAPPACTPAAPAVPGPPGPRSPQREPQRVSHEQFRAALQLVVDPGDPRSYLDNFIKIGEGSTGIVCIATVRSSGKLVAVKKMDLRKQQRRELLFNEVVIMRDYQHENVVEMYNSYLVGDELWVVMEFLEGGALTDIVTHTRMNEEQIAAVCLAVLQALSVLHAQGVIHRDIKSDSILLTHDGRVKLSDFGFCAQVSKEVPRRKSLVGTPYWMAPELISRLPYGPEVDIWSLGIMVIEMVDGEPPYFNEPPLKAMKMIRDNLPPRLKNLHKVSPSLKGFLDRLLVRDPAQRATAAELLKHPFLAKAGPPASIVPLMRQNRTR

CSCC[C@H](N)C(=O)Oc1ccccc1  Km (S-adenosylmethionine synthetase (Campylobacter jejuni); substrate; pH 7.6, ambient, with: ATP co-substrate): 1300 ± 200 µM
O=C(O)CCS  Km (Azotobacter vinelandii MDO; substrate; 20 °C, with: O2): 13 ± 5 µM
O=CCO  Km (aldehyde oxidase F10 (Pseudomonas sp. MX-058); substrate, peroxidase-coupled H2O2; pH 7.0, 30 °C, with: O2 co-substrate): 29800 µM
O=c1c(O)c(-c2ccc(O)c(O)c2)oc2cc(O)cc(O)c12  Km (Cu-pirin-like protein (Stutzerimonas stutzeri); flavonol dioxygenase activity, substrate; pH 7.5, 25 °C, 5% DMSO): 13 µM
CC=O  Km (aldehyde oxidase F10 (Pseudomonas sp. MX-058); substrate, peroxidase-coupled H2O2; pH 7.0, 30 °C, with: O2 co-substrate): 12300 µM
O=c1cc(-c2ccc(O)cc2)oc2c([C@@H]3O[C@H](CO)[C@@H](O)[C@H](O)[C@H]3O)c(O)cc(O)c12  Km (beta-fructosidase (Glutamicibacter nicotianae); acceptor substrate; pH 6.47, 35 °C, with: sucrose 50 mM): 116 µM
Ac-LDEVD-pNA (N-acetyl, C-pNA; pNA = O=[N+]([O-])c1ccc(N*)cc1)  Km (Caspase-3 (CASP3, Homo sapiens, UniProt P42574); substrate hydrolysis, substrate, colorimetric; pH 7.5): 28 ± 1 µM
B1 (UGT1A9)  Vmax (COc1ccccc1-c1cc(=O)c2ccc(O)cc2o1; steady-state kinetics; pH 7.4, 37 °C): 0.00223 µmol/min/mg
dolichyl phosphate  Km (Dolichol-phosphate mannosyltransferase subunit 1, with DPM2 and DPM3 (Homo sapiens, UniProt O60762, G152V); mannose transfer, substrate; fibroblast membrane fraction; patient cells, with: GDP-[3H]mannose 5 µM): 11.5 µM
DDEPIYIEFDAHN  Km (CSK; substrate, enzyme-coupled; peptide; pH 7.4, room temperature, with: ATP 1 mM, MnCl2 5 mM): 190 ± 19 µM
Mca-PLGL-Dpa-AR-NH2  Km (MMP14 (Homo sapiens, UniProt P50281); substrate, FRET peptide cleavage; pH 8.0, 37 °C): 2.14 ± 0.15 µM
YKKRLTVELT  Km (PAK4 (Homo sapiens, UniProt O96013); kinase activity, substrate; peptide; pH 7.4, 30 °C, with: ATP 20 µM): 1100 µM
FEEPIYIEPIDFE  Km (CSK; substrate, enzyme-coupled; peptide; pH 7.4, room temperature, with: ATP 1 mM, MnCl2 5 mM): 150 ± 15 µM
CCOC(=O)[C@@H](N)CCSC  Km (S-adenosylmethionine synthetase (Campylobacter jejuni); substrate; pH 7.6, ambient, with: ATP co-substrate): 530 ± 40 µM
VTDYYYPDI  Km (Protein-tyrosine sulfotransferase 2 (Homo sapiens, UniProt O60704); sulfation, substrate, LC-MS; peptide; pH 7.5, 30 °C): 23.9 µM
Cc1cn([C@H]2C[C@H](O)[C@@H](COP(=O)(O)OP(=O)(O)OP(=O)(O)O)O2)c(=O)[nH]c1=O  Km (polA, large fragment (Geobacillus stearothermophilus, UniProt P52026); primer extension, substrate; 3 min): 6.41 µM
